Results from different studies.
Each numbered part is a random draw from the data of one study; scales do not carry over between parts. Changes are numbered by the printed parent chain.
UniProt Q969T4, sequence (whole entry, looked up): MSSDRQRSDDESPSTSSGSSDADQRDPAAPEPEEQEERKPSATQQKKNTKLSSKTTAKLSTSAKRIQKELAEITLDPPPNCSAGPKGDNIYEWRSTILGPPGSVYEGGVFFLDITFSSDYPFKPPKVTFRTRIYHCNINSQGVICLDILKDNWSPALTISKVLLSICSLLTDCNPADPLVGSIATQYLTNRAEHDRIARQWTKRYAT
UniProt P61081, sequence (whole entry, looked up): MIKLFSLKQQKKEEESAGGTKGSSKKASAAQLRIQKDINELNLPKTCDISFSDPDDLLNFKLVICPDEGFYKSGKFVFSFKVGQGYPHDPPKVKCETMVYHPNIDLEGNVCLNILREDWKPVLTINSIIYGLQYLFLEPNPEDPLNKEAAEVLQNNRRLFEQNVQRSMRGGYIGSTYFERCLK
UniProt O00762, sequence (whole entry, looked up): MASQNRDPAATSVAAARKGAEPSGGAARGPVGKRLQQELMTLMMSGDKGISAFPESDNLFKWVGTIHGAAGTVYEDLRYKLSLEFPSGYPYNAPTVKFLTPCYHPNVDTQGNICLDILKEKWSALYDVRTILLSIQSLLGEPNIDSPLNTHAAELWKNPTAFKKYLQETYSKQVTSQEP
UniProt Q9C0C9, sequence (whole entry, looked up): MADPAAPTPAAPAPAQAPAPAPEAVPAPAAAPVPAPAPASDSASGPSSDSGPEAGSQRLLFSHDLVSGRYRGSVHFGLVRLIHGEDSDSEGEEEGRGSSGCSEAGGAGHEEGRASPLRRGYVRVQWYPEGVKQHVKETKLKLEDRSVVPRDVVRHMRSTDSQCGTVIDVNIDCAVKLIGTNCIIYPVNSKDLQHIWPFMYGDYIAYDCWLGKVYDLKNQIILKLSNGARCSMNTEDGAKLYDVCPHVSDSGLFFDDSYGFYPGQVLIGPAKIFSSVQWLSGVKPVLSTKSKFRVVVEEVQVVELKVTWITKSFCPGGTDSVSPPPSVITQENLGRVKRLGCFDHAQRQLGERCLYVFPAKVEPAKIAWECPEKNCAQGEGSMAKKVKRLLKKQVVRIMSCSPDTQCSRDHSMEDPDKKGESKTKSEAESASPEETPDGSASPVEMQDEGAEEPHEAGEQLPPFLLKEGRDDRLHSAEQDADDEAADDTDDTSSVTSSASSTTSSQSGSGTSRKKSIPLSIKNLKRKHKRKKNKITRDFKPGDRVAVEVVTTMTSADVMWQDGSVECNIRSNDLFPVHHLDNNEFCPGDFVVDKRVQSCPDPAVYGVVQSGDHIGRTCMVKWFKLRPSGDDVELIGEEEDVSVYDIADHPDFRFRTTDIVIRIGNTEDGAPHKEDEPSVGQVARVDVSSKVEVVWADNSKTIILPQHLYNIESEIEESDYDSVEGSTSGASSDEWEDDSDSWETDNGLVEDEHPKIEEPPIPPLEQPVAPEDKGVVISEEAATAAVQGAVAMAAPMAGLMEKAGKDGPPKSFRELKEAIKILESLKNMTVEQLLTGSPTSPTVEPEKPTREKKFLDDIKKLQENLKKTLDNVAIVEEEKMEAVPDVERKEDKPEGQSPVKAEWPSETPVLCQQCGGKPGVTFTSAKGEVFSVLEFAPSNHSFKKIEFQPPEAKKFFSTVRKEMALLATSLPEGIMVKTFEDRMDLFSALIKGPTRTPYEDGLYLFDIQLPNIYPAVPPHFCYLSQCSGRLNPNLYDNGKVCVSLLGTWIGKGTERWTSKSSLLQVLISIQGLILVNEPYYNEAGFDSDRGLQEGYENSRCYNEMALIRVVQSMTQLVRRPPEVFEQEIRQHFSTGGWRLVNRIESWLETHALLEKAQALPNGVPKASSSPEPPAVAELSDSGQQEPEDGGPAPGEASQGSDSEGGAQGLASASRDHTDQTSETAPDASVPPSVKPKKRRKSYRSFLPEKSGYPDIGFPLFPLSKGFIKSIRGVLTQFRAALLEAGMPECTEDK
UniProt P68036, sequence (whole entry, looked up): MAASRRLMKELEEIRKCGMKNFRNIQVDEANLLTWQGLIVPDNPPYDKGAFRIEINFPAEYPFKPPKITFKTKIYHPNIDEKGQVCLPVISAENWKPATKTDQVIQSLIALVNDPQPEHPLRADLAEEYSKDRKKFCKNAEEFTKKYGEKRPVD
UniProt Q712K3, sequence (whole entry, looked up): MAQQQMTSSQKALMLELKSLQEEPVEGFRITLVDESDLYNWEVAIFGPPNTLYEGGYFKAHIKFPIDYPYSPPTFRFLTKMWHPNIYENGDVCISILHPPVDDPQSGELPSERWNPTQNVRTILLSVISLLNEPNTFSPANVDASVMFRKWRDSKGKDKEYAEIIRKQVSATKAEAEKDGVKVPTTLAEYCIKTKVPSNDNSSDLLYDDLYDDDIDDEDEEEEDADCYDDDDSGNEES
UniProt Q9Y385, sequence (whole entry, looked up): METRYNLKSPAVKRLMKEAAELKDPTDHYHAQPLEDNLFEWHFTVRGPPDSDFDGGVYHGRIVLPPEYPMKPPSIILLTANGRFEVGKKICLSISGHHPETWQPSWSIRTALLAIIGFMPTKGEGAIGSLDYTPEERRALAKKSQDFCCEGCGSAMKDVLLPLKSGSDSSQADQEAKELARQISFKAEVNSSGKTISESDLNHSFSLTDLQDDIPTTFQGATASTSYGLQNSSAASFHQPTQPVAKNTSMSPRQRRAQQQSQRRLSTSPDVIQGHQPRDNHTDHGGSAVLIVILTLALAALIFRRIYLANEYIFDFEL

Set 1
Target: NFE2, bZIP domain (human)
Method: DHFR protein complementation
Medium: yeast
Setting: single substitutions, most at no-binding floor
Baseline: wild-type JUN-FOS pair
Direction: higher = stronger binding
Parent: JUN, bZIP domain (human); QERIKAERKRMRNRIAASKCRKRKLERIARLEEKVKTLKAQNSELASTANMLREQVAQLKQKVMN; partner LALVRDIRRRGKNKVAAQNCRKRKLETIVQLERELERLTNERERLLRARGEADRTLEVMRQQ
Substitution | binding fitness [natural log]
S43L | -1.35
V56T | -1.28
K39L | -1.42
T48C | -1.32
S47C | -1.43
T37A | -1.37
L38D | -1.41
Q58P | -1.48
N42M | -1.51
S43R | -1.33
A29K | -1.48
A46E | -1.46
E32C | -1
I28P | -1.34
L38I | -1.51
S43C | -1.36
L31H | -1.56
L38A | -1.32

Set 2
Target: Hepatocyte nuclear factor 3-alpha (Foxa1, Mus musculus, UniProt P35582, residues 1-468, full length assumed)
UniProt P35582, sequence (whole entry, looked up): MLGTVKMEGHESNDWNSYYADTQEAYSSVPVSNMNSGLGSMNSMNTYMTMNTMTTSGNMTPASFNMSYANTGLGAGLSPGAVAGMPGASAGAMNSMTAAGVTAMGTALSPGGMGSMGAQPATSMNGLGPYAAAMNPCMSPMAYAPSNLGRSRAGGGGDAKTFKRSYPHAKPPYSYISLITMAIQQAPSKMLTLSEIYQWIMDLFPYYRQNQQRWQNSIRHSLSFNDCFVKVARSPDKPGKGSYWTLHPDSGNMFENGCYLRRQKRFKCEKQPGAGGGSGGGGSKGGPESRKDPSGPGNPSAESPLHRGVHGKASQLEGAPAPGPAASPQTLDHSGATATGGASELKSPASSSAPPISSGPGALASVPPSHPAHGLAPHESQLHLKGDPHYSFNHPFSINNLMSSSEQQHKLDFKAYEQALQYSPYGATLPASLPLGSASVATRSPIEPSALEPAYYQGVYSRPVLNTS
Method: EMSA with sequencing
Form: double-stranded DNA, one strand shown
Medium: in vitro
Tested at: 10 and 20 nM
Setting: whole designed probe, mean of two concentrations, ends assumed
Baseline: negative control set to 0
Direction: higher = stronger binding
Shared flanks, not repeated: GTGAGCGGTGCCCATTGATGGGGAAC … TTTCACTGGGATCGTGGGGAC
Oligonucleotide | normalised bound fraction
CCACTACTCCTGCCAAGCCCTCCTGGCATCTCACCACTTTATTTGTTCCCATTTGTATCTAATGCTTTTGTCAACAGTTCAACAAAAGTCAAAGCAAACAACCCACTGCAAACACTGGGGGTAACAGCAACAAGCATGAATCCTTCACAATTATCCAGCCCAGCTGCTCACAGCTCGTCTGGGCTGCTTTCAT | 0.354 ratio
GTGTGCTAGCCTGTGAGTTTTTCTCTCCAACTAGCCTGGGTACTCAGGAAAGTGAGATCAACTTCTGGGTGGCCTTGGGTGTAGCTGACCTGTGCAATTTGGGGAGACAGTTGACATACAGATGAAAGGGGAGATGGGAAGCCATACAGAGGAAGGAGAAGATCAGGAACCAGAGATAAGATAATTCTGTAAA | 0.0181 ratio
CTGCGGATCACCCCAAGGAAAATCCAGACTGATTCGATCAGTCCTAGCTGGAAGCAGCACAGGAATAGCAGGAAGCCTATGACTCATTTTAAGCAAACATCCGGTAACCCGACTGGTATCTGGTTCAAATGGGGAAACCTGAAGCACCTATGACAGGCCAGGCCCAGAGAAGATACTGCCCAGATGGATACAG | 0.129 ratio
CTTATCTGGGCCCATGAGTAAGCCTGCCAGCCCCCTGCTGCCCTGACTGGCGTGAGCAACAGCAATAAATAAATAAGAACAGAGACAAGAAGCTTATGTACTTTGGAGCTCCTGGTTCTATTTGATGTCATTGGACACCAGTTTGCTTTTCTTTAAAGCCTGTTTCTTTTGAACTGGGCTGCCGCAGTCTATA | 0.284 ratio
GACGGGCACCAGGAGCCCTGTGTCCTCTGCCTTGCAGGTGTTTAGGGAACATTGTTCAGACTGGAAGGAAGAGCCACGTGAAAATGCCCTTTCTGTTTACTCTGCTGGGAAGGATATGAAGCCAAACAGAACCAGCTACGGGAGTCTTTCGACCGCAAGACAAAAGGTCCTTTGCCCCCACTACCTGCAACTT | 0.284 ratio
AAAAGTCTATTATTATTGAGTCTCACAAATCCTATATCAATGGTTCCCAACTTGCCAGAATAATAAAGTAGTTTATATGACATAAGTATATTTGTTTACATTGTAGCATTAAAGACTATGCTCATACTTAGTGGGGGTCTATCCAAACTTGCTTACTTAGATTAAGAGTGAATAAGCTTTGGTTTTTGGTTTT | 0.527 ratio
ATCTTCCCCCTCTTCCTTGCCCCACCAGCTCACCTTCCCGGGTTATTTGCAGATAGGAAAATAAATAAAGCCGGCATTCGTTAACCCTCTTCTGGCGCAAACTGCTGTTTGCTCTGGATGAATCATGGTCCTTTGGCGACGCCAGGCTCCGGGAGAGCAAAGCGCATGAACCAGCGCTTTCGGCGGGGTGGCC | 0.333 ratio
CCCTTGGAATGAAGGCAAATGAGGATTTAGAATACTTGCAGGTTGTTCTGTCAGTACTAATTTGAGTGCTAAAGTTCTATTTGCAAACCTAAGTAATCTGGAATGTAGACAGCTTGAACAAGATGAAATTGTGATATCGCCCAAAGGAACAAGCTGATCAGGGAAAGCTCAGCATGCATTTGAATCAAGAGCA | 0.0569 ratio

Set 3
Target: RNA binding protein fox-1 homolog 2, RRM domain, GST-SBP tag (RBFOX2, Homo sapiens, UniProt O43251-10, residues 100-194)
Method: RNA Bind-n-Seq
Form: RNA
Medium: in vitro
Tested at: 365 nM
Setting: natural RNA segment, single round, ends assumed
Baseline: no-protein control
Direction: higher = stronger binding
Shared flanks, not repeated: GGGAGUUCUACAGUCCGACGAUC … UGGAAUUCUCGGGUGCCAA
Oligonucleotide | RBNS enrichment (R)
CAGGCUUGUUCCCACACUACCUCUUUAAAGCGAUUCUUCCUAUGCUGGUCUGUUCAAUCCUGCCCUCUUUGGUGCUAGAUCCAGUUGUGCCUCAGAGCAGAAGAAACAAA | 0.482
GAUUUAAGCCUAGGGAUUUUAUUUUUAUAAAUACCAAAUCAUCAUUAGACUAAUCACUGGUGGAAAUUAAAUAUGGCAGUUAUGUUAGGUUUCCUAAUAUUUCAAAGGUU | 0.503
UCCCCAGUGAAUUCCCAACACCUUGACUUCCUCAUUUCAGUGCUAAUAACCUGUUUUGUGUGCAGUUAAUCCAUUCUGAAGCAGGUGAAAGGUCAGUAUUUUAGCAUUUU | 0.664
AAAGUAAAAAAUCAGGAUGUUUUUCACUGUCCAUUGCUUUGUGUUUUAAUAAACAAUUUGCAGUGAUCUCCGUGUUGAGAGUGAAUUGAACUCAGAGAGAGAGAUGGUGA | 0.644
GUGAGUGUGUGCAACUACUUGUGUGAGGGCAUGGUAGCUAACGUGUGUAUGAGAUCCUAUAUACCAGCAUGUACCAAGAAUGUGUGUGUAGUUUUAAUUAUGCUGCAAUG | 18.1
GCUUCCCAGAGAAGCUCAUUUAGUUAGAAAAUAAGGCAAGUUUUGAAGCCUGCUAAAUGAAGAGACUUAAGAAAGCUUAAGGUACGCUUGCUUGUCUUUAAAUCUUCAAU | 0.786
CGAGCUCAUCAUGAGAUGCCAACGCCCGUGGUCGAUUUAUAUAUAUUUUUUUGUAAUUAUUAUAUUCUAGUUUGGAGUACUUGCUGUAGGAUUCAAGCUGUCUUUGCACU | 0.609
CUUUUCUUUUCAGCUUGAUUGCAUUUGACUAUAUUUUACAGCCAGUGAUUGUAGUUUCAUGUUAAUAUGUGGCAAAAUAUUUUUGUAAUUAUUUUCUAAUCCCUUUCUGA | 0.89
UAUAAAGAUGGUAGUAAGUCAAUACAUUUAUCCUGAUCUGUGUAUUAUUUGUUCACAAAUUCAAGAAGCUUAAAGGUCGUAAAUAUCAGUAUCUCAUAAGGUAAACCAAU | 0.488
CCUUUGCCUUUCCCGCUCCCACUAUCUGGGCUUUGACUCCAUGGAUAUUAAAAAAGUAGAAUAUUUUGUGUUUAUCUCCCACACAGCCCCAAAUUCUUUUGUUGUGUGUG | 0.927
AGUGGGUAGAGCGUCUGCCAGACUCCUGGCCUGGUGUGCCUGGGUAGAAUUACACGAUAAGCAAUGGUCAGACUUUCCUUCUGUGGAUCCUUAUGCCAAUUCAGCUACUA | 0.405
UCGCUGACCCAGAGGCGCUGUGCCUGCAUAUCAUCCACCACCACCCUAGCCCAGCCUUCCCACUGCCCCAGGAAAAGCUCUUCUCCUGGCCACCUCUGCCCCCCAGCACC | 0.853

Set 4
Sequence: B1 (RNF14 RING domain)
Method: yeast two-hybrid
Medium: yeast
Setting: mostly zero background
Baseline: not given
Direction: higher = stronger interaction
B1: RNF14 RING domain (UniProt Q9UBS8); chain IKCFNSKLFLCSICFCEKLGSECMYFLECRHVYCKACLKDYFEIQIRDGQVQCLNCPEPKCPSVATPGQVK
target | lacZ reporter activity
BIRC6 UBC core domain (UniProt Q9NR09) | 0
UBE2M UBC core domain (UniProt P61081) | 0
UBE2E3 UBC core domain (UniProt Q969T4) | 0
UBE2L3 UBC core domain (UniProt P68036) | 0
UBE2R2 UBC core domain (UniProt Q712K3) | 0
UBE2I UBC core domain (UniProt P63279) | 0
UBE2J1 UBC core domain (UniProt Q9Y385) | 0
UBE2O UBC core domain (UniProt Q9C0C9) | 0
UBE2C UBC core domain (UniProt O00762) | 0

A few entries again (set 1):
Substitution | binding fitness [natural log]
K39L | -1.42
Q58P | -1.48
T48C | -1.32
S43R | -1.33
